Assay results of several laboratories.
Parts stem from different laboratories: compare values within a part only. Several values in a cell are separate wells, animals, samples, runs or records.

Block 1 — cell line: U-87 MG; tested at: concentration not given; baseline: DMSO
Compound: CCN1/C(=C/C=C2\CCCC(/C=C/C3=[N+](CC)c4ccccc4C3(C)C)=C2NCCCCCCCCN2CCC(Nc3nc4ccccc4n3Cc3ccc(F)cc3)CC2)C(C)(C)c2ccccc21
test	log2 fold change
refers to: BCL2L2 mRNA	0.822
refers to: NUSAP1 mRNA	-1.86
refers to: DLX5 mRNA	-3.81
refers to: MEST mRNA	-2.92
refers to: FAM53C mRNA	0.906
refers to: AAK1 mRNA	1.01
refers to: SLC25A1 mRNA	-0.803
refers to: EMP2 mRNA	-1.11
refers to: RARA mRNA	-0.898
refers to: DCHS2 mRNA	1.47
refers to: PCMTD1 mRNA	0.98

Block 2 — cell line: MDA-MB-468; effect on: cell viability; technique: CellCounting-Lite; tested at: 2.743 nM; temperature: 37 °C; reading: higher = more viable cells
Compound	luminescence signal
CC(=O)N1CCN(c2nc(NCc3nc4cc(Cl)c(Cl)cc4[nH]3)c3ncn(-c4cnn(C)c4)c3n2)CC1	568000 a.u. and 528000 a.u. and 490000 a.u.
CCCCOc1nc(NCc2nc3cc(Cl)c(Cl)cc3[nH]2)c2ncn(CC)c2n1	463000 a.u. and 530000 a.u. and 506000 a.u.
CCn1cnc2c(NCc3nc4cc(Cl)c(Cl)cc4[nH]3)nc(N3CCN(C(=O)c4ccncc4)CC3)nc21	252000 a.u. and 205000 a.u. and 223000 a.u.
CC(=O)N1CCN(c2nc(NCc3nc4cc(Cl)c(Cl)cc4[nH]3)c3ncn(C)c3n2)CC1	459000 a.u. and 443000 a.u. and 511000 a.u.
CCn1cnc2c(NCc3nc4cc(Cl)c(Cl)cc4[nH]3)nc(N3CCN(S(C)(=O)=O)CC3)nc21	527000 a.u. and 480000 a.u. and 478000 a.u.
CCn1cnc2c(NCc3nc4cc(Cl)c(Cl)cc4[nH]3)nc(N3CCn4ncnc4C3)nc21	421000 a.u. and 431000 a.u. and 491000 a.u.
Cn1cc(-n2cnc3c(NCc4nc5cc(Cl)c(Cl)cc5[nH]4)nc(N4CCNCC4)nc32)cn1	519000 a.u. and 587000 a.u. and 556000 a.u.
CCn1cnc2c(NCc3nc4cc(F)c(F)cc4[nH]3)nc(N3CCn4ncnc4C3)nc21	395000 a.u. and 459000 a.u. and 456000 a.u.
CCn1cnc2c(NCc3nc4cc(Cl)c(Cl)cc4[nH]3)nc(N3CCC(NC(C)=O)CC3)nc21	419000 a.u. and 450000 a.u. and 446000 a.u.

Block 3
Compound: COc1ccc2c(c1)OC(O)(C(=O)O)C(=O)N2Cc1ccccc1 (stereo not drawn)
organism	test	system	conditions	how to read	inhibition
Arabidopsis thaliana	root length	Col-0, seedlings	12.5 µg/mL	–	10.2%
Arabidopsis thaliana	root length	Col-0, seedlings	100 µg/mL	baseline: water control	81%
Arabidopsis thaliana	root length	Col-0	12.5 µg/mL, 7 days, seed germination, dark	–	10.2%
Arabidopsis thaliana	hypocotyl length	Col-0, seedlings	25 µg/mL	–	22.7%
Zea mays	fresh weight	–	soil surface spray, 150 g ai/ha, 21 days, pre-emergence crop safety	–	21.1% and 18.7% and 20.2%
Echinochloa crus-galli	fresh weight	–	150 g ai/ha, post-emergence treatment	–	48.5% and 42.9% and 50.2%
Arabidopsis thaliana	hypocotyl length	Col-0, seedlings	50 µg/mL	–	36.6%
Abutilon theophrasti	fresh weight	–	150 g ai/ha, pre-emergence treatment	–	50.8% and 56.2% and 54.1%
Oryza sativa	fresh weight	–	soil surface spray, 150 g ai/ha, 21 days, pre-emergence crop safety	–	15% and 11.5% and 12.5%
Alopecurus japonicus	fresh weight	–	150 g ai/ha, pre-emergence treatment	–	49.2% and 47.5% and 47.3%
Arabidopsis thaliana	hypocotyl length	Col-0	6.25 µg/mL, 7 days, seed germination, dark	–	9.2%
Arabidopsis thaliana	hypocotyl length	Col-0, seedlings	3.125 µg/mL	–	5.93%
Arabidopsis thaliana	root length	Col-0	25.0 µg/mL, 7 days, seed germination, dark	–	20.5%
Arabidopsis thaliana	root length	Col-0	3.13 µg/mL, 7 days, seed germination, dark	–	6.9%
Arabidopsis thaliana	hypocotyl length	Col-0	3.125 µg/mL, 7 days, seed germination, dark	–	5.9%
Arabidopsis thaliana	root length	Col-0	6.25 µg/mL, 7 days, seed germination, dark	–	9.9%
Triticum aestivum	fresh weight	–	soil surface spray, 150 g ai/ha, 21 days, pre-emergence crop safety	–	3.1% and 2.5% and 4.3%

Block 4 — effect on: thermal unfolding; technique: differential scanning fluorimetry; tested at: 5.5 µM; reading: higher = more unfolded
Compound: C[C@@H]1CN(c2ccc(-c3cc(C(=O)NCCOCCOCCOCCOCCNC(=O)/C=C/c4[nH]cc(C(=O)N[C@@H](CC(N)=O)c5ccc(F)c(Cl)c5)c4-c4ccc(Cl)cc4F)ccc3F)cc2NC(=O)c2c[nH]c(=O)cc2C(F)(F)F)C[C@H](C)N1C
WDR5: WD repeat-containing protein 5 (WDR5, Homo sapiens, UniProt P61964)
DCAF1: DDB1- and CUL4-associated factor 1 (DCAF1, Homo sapiens, UniProt Q9Y4B6)
Sequence of UniProt Q9Y4B6 (whole entry, looked up): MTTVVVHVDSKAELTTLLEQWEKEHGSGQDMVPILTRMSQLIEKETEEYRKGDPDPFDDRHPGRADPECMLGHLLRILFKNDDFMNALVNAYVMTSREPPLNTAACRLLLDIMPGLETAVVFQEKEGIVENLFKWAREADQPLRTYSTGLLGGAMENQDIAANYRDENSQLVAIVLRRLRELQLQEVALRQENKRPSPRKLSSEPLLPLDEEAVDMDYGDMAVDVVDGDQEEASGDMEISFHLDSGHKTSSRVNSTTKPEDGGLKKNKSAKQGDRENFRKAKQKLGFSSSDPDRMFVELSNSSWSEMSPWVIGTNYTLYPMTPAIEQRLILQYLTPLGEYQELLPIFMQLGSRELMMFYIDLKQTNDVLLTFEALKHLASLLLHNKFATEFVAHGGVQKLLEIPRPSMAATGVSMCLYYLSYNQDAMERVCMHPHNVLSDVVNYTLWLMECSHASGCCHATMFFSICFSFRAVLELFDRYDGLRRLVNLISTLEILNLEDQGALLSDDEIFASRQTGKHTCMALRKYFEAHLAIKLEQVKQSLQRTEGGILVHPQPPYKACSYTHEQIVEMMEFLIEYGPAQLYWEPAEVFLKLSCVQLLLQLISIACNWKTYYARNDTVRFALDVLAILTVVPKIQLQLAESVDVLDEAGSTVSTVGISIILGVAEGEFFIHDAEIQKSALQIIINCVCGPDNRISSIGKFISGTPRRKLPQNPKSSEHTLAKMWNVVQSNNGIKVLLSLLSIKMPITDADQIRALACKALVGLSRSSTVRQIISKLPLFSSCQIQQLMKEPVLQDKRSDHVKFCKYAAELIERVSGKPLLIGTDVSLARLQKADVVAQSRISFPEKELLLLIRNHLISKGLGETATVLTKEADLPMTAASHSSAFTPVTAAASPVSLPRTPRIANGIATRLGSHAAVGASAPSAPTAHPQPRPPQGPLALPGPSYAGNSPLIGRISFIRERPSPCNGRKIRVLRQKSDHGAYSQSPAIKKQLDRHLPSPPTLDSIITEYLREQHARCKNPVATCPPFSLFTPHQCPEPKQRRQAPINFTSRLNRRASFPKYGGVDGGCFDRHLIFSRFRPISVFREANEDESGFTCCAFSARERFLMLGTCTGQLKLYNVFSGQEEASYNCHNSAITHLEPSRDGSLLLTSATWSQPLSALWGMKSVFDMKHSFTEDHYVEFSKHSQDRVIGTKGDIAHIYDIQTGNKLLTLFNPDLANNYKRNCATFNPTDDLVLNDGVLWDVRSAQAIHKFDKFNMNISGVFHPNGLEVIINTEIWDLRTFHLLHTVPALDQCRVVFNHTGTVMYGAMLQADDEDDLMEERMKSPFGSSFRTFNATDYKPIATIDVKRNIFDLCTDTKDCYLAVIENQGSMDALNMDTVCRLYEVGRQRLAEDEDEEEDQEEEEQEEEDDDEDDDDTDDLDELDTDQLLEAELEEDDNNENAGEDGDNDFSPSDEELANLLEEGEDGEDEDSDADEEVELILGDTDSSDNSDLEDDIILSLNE
target	conditions	SYPRO Orange fluorescence [a.u.]
WDR5	66.61 °C	14000
DCAF1	39.6 °C	11400
DCAF1	35.2 °C	10300
DCAF1	34 °C	9910
DCAF1	32.2 °C	9740
WDR5	79.01 °C	37500
DCAF1	26 °C	8950
DCAF1	93.41 °C	31200
